Results collected from several papers.
A part holds a random share of what one study measured. Several values in a cell are separate wells, animals, samples, runs or records.
Sequence of UniProt P42336 (whole entry, unmodified, looked up): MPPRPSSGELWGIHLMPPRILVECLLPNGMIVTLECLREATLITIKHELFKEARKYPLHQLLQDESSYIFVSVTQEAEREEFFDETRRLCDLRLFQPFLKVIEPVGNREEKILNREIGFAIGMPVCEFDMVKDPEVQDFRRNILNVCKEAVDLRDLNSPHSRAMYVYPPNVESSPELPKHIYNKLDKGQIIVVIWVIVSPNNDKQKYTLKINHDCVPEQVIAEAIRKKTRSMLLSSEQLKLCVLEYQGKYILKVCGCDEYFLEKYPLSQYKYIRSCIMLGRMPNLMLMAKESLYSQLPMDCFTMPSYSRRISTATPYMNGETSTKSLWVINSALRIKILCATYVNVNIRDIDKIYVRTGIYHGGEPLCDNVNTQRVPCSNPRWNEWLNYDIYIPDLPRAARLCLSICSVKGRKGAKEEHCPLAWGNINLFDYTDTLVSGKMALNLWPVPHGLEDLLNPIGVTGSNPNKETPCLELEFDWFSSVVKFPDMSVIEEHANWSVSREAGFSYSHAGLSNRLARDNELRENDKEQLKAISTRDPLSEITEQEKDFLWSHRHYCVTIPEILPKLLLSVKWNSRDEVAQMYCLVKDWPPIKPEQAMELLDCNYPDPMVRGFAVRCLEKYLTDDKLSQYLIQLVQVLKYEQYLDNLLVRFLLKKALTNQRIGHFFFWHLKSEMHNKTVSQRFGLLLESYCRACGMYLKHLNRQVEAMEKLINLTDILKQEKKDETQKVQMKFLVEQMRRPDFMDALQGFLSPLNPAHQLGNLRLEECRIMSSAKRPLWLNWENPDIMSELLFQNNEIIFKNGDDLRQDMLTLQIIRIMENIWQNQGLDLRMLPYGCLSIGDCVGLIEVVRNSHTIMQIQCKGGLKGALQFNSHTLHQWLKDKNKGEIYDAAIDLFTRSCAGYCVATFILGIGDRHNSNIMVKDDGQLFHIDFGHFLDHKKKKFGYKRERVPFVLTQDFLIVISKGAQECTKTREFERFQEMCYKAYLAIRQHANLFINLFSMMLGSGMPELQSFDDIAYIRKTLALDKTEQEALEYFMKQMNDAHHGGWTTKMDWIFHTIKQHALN
Sequence of UniProt P35590 (whole entry, looked up): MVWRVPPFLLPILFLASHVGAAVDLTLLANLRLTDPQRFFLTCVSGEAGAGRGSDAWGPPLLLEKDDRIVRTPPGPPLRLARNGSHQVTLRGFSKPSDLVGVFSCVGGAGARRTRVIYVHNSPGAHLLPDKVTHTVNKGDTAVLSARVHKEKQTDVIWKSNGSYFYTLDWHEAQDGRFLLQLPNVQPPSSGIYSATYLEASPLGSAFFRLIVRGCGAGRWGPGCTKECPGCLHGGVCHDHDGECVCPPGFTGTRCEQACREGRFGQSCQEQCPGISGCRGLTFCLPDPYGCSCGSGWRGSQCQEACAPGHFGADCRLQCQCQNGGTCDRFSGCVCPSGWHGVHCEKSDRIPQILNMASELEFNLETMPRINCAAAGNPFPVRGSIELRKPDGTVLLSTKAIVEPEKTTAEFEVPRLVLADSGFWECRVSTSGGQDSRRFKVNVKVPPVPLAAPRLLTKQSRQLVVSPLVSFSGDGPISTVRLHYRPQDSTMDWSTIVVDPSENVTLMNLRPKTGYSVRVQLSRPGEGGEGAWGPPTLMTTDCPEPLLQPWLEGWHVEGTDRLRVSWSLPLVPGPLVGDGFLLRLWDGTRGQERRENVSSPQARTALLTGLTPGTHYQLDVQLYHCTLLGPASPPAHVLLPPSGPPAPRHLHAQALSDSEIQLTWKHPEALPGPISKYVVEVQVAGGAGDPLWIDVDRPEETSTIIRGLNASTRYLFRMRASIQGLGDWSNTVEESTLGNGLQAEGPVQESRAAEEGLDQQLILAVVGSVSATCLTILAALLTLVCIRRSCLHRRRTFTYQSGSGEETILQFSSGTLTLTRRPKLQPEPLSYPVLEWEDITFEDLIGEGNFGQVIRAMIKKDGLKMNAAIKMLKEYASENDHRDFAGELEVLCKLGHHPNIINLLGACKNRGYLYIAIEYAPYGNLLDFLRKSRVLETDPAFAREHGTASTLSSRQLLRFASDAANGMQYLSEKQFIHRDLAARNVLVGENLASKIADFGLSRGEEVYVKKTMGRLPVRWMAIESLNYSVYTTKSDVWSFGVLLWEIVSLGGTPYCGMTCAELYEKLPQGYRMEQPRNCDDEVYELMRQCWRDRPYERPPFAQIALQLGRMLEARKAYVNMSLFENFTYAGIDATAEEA
Sequence of UniProt Q96PN8 (whole entry, looked up): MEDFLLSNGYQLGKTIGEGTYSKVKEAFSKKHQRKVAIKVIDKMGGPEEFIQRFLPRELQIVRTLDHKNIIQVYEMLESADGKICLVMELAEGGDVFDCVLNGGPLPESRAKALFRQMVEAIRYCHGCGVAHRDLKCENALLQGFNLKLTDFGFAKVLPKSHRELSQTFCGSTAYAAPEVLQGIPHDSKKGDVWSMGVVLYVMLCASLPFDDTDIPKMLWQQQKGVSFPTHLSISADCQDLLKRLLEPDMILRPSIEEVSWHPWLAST
Sequence of UniProt P07949 (whole entry, looked up): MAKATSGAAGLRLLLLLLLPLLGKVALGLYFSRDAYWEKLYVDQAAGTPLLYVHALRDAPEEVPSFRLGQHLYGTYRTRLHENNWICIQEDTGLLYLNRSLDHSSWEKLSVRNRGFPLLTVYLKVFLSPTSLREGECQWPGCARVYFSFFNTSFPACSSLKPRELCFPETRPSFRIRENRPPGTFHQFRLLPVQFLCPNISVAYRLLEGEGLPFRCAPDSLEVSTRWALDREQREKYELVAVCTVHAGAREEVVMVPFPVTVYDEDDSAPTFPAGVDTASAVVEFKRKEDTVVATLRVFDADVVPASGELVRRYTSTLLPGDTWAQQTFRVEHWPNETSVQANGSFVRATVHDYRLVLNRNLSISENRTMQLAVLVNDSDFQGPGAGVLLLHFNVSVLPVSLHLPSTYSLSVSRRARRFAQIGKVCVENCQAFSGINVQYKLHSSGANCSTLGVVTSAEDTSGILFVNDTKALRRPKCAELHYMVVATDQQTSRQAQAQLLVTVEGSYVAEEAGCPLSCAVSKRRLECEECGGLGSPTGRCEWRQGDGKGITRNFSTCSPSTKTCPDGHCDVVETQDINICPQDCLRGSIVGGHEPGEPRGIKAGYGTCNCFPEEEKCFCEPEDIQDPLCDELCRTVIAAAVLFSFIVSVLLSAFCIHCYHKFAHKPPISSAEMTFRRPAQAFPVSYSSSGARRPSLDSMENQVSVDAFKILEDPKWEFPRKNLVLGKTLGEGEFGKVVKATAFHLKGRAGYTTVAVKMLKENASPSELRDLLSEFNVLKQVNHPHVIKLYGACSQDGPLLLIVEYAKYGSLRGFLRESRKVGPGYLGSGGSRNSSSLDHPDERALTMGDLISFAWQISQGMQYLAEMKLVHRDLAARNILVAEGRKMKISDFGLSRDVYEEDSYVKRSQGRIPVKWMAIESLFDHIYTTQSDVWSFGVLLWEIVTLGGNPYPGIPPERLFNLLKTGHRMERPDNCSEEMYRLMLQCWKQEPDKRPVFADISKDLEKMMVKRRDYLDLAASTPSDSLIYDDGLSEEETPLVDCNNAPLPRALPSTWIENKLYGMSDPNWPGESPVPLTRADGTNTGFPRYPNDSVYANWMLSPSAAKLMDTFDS
Sequence of UniProt O95747 (whole entry, looked up): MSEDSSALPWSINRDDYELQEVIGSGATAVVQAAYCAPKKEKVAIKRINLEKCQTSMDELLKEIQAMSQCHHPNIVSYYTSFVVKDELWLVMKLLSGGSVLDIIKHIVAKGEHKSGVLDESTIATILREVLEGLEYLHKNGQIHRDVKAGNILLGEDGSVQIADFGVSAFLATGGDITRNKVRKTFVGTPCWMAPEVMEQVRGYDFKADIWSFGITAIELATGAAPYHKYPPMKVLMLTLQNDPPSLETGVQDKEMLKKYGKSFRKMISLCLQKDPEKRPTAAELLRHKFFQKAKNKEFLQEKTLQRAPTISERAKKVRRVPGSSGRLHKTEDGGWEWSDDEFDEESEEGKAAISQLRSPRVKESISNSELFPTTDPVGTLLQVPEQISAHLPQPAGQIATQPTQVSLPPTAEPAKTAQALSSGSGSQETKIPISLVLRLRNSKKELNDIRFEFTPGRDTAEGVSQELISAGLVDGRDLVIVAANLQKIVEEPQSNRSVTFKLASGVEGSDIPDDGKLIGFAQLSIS
Sequence of UniProt P41240 (whole entry, looked up): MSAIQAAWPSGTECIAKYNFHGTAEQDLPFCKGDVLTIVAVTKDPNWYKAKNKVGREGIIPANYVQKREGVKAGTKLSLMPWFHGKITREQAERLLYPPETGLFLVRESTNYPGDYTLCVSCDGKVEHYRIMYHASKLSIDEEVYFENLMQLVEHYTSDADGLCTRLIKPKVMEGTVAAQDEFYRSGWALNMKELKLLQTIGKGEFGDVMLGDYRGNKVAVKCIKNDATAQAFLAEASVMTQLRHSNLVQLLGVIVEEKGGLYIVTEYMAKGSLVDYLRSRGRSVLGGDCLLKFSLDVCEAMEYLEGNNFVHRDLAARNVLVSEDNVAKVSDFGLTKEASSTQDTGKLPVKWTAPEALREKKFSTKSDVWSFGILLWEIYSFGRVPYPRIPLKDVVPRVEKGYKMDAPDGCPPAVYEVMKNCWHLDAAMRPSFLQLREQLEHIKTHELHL

Study 1
SMILES: CC(C)(C)c1cnc(CSc2cnc(NC(=O)C3CCN(CCCCCCCCSc4cccc5c4C(=O)N(C4CCC(=O)NC4=O)C5=O)CC3)s2)o1 (centres unmarked)
Cell line: HH
Technique: CCK-8
tested at	viability
250 nM	0%
100 nM	76.9% and 81.2%
10 nM	92% and 95.8%
50 nM	95% and 95.2%

Study 2
Target: Calcium/calmodulin-dependent protein kinase type II subunit alpha (CAMK2A, Homo sapiens, UniProt Q9UQM7)
Sequence of UniProt Q9UQM7 (whole entry, looked up): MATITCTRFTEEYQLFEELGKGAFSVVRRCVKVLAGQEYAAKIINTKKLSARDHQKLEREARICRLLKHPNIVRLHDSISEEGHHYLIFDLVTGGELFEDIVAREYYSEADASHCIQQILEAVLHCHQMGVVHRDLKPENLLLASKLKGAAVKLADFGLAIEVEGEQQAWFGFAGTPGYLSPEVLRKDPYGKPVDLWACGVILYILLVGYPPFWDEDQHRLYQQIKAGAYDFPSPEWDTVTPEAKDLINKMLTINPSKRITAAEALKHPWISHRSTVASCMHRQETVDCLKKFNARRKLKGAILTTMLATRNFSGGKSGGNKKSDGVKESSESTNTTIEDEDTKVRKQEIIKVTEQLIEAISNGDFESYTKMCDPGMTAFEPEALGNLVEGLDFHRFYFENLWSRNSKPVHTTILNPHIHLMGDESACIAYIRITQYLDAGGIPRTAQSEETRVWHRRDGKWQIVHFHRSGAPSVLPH
Observed: enzyme activity
Mode: inhibitor
Tested at: 10 µM
SMILES	inhibition
COC(=O)OCOc1c2n(ccc1=O)N([C@@H]1c3ccccc3SCc3c1ccc(F)c3F)[C@@H]1COCCN1C2=O	0%
CC(C)=CCC[C@](C)(O[C@@H]1O[C@H](CO)[C@@H](O)[C@H](O)[C@H]1O)[C@H]1CC[C@]2(C)[C@@H]1[C@H](O)C[C@@H]1[C@@]3(C)CC[C@H](O[C@@H]4O[C@H](CO)[C@@H](O)[C@H](O)[C@H]4O[C@@H]4O[C@H](CO)[C@@H](O)[C@H](O)[C@H]4O)C(C)(C)[C@@H]3CC[C@]12C	-20%
CC(/C=C1\SC(=S)N(CC(=O)O)C1=O)=C\c1ccccc1	2%
Nc1nc2c(c(=O)[nH]1)N(C=O)C(CNc1ccc(C(=O)N[C@@H](CCC(=O)O)C(=O)O)cc1)CN2 (some centres unmarked)	-3%
C[C@H]1O[C@@H](O[C@H]2CC[C@@]3(C)[C@@H](CC[C@]4(C)[C@@H]3C=CC3=C5CC(C)(C)CC[C@]5(CO)[C@@H](O)C[C@]34C)[C@]2(C)CO)[C@H](O)[C@@H](O[C@@H]2O[C@H](CO)[C@@H](O)[C@H](O)[C@H]2O)[C@H]1O	-23%
CC(C)=CCC/C(C)=C/CC/C(C)=C/CCC(=O)OC/C=C(\C)CCC=C(C)C	-5%
CCC/C=C1\OC(=O)C2=C1CC[C@@H](O)[C@H]2O	-4%
C=C(CCC=C(C)C)[C@H]1CC[C@]2(C)[C@@H]1[C@H](O)C[C@@H]1[C@@]3(C)C[C@@H](O)[C@H](O[C@@H]4O[C@H](CO)[C@@H](O)[C@H](O)[C@H]4O[C@@H]4O[C@H](CO)[C@@H](O)[C@H](O)[C@H]4O)C(C)(C)[C@@H]3CC[C@]12C	13%

Study 3
Target: Diamine acetyltransferase 1 (Homo sapiens, UniProt P21673)
Mode: inhibitor
Tested at: 10 µM
Relative to: control
Target sequence (P21673 1-171): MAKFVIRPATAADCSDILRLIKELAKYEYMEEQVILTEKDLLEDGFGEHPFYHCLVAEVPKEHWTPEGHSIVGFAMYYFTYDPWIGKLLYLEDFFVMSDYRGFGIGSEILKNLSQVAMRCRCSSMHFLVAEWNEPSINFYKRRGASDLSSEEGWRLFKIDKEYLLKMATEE
Compound	remaining activity
C[N+](C)(C)CCO	104%
O=C(O)CC(O)C(=O)O (centres unmarked)	98.5%
CC(=O)OCC1=C[C@H](O)[C@@H]2C(C(=O)O)=CO[C@@H](O[C@@H]3O[C@H](CO)[C@@H](O)[C@H](O)[C@H]3O)[C@H]12	115%
CC1=CCC(=O)O1	97.5%
CCCCCCCCCCCCCCCC(=O)OCC	121%
COc1c(/C=C/C(=O)c2ccc(O)cc2)ccc(O)c1O	113%
COc1ccc2ccc(=O)oc2c1CC=C(C)C	103%
N[C@@H](CC(=O)O)C(=O)O	83.9%
CCC(=O)c1ccccc1O	96%

Study 4
Host: human
Medium: microsomes or S9
Tested at: 2 µM
Time: 0.5 h
Compound	remaining compound [%]
CC(C)(C)c1nnc2ccc(N3CCCc4occc4C3)nn12	36.7
CC(C)(C)C(=O)N1CCC(C(=O)OCc2ccc(C(N)=O)cc2)CC1	78.2
Cc1nc(N2CCN(c3ccccn3)CC2)nc2c1C(=O)CC(c1cccc(Cl)c1)C2 (centres unmarked)	54.4
CC(C)(C)c1cnnn1-c1ccc(C(=O)COC(=O)c2ccccc2)cc1	0.0746
COCCNc1nc(N2CCCC2)nc2nccnc12	75.6
CC(C)=CCO[C@H]1CCOC[C@H]1Nc1ncc(F)c(N2CCOCC2)n1	1.21

Study 5
SMILES: CC1=C(C#N)C(c2ccc3c(c2)c(NC(=O)c2ccccc2C)nn3C)C(C#N)=C(C)N1
Observed: cell-free assay
Technique: competition with immobilised ligand
Tested at: 1 µM
target	remaining binding [%]
Microtubule-associated serine/threonine-protein kinase 1 (MAST1, Homo sapiens, UniProt Q9Y2H9)	92
Cyclin-dependent kinase 3 (CDK3, Homo sapiens, UniProt Q00526)	99
Serine/threonine-protein kinase D2 (PRKD2, Homo sapiens, UniProt Q9BZL6)	95
Mitogen-activated protein kinase 13 (MAPK13, Homo sapiens, UniProt O15264)	79
G protein-coupled receptor kinase 4 (GRK4, Homo sapiens, UniProt P32298)	100
Serine/threonine-protein kinase OSR1 (OXSR1, Homo sapiens, UniProt O95747)	83
Serine/threonine-protein kinase ULK3 (ULK3, Homo sapiens, UniProt Q6PHR2)	84
Phosphorylase b kinase gamma catalytic chain, liver/testis isoform (PHKG2, Homo sapiens, UniProt P15735)	89
RAC-gamma serine/threonine-protein kinase (AKT3, Homo sapiens, UniProt Q9Y243)	93
Mitogen-activated protein kinase 7 (MAPK7, Homo sapiens, UniProt Q13164)	100
Tyrosine-protein kinase receptor Tie-1 (TIE1, Homo sapiens, UniProt P35590)	94
Proto-oncogene tyrosine-protein kinase receptor Ret (RET, Homo sapiens, UniProt P07949)	97
Serine/threonine-protein kinase TAO2 (TAOK2, Homo sapiens, UniProt Q9UL54)	70
Mitogen-activated protein kinase kinase kinase 10 (MAP3K10, Homo sapiens, UniProt Q02779)	69
Serine/threonine-protein kinase SIK3 (SIK3, Homo sapiens, UniProt Q9Y2K2)	81
Receptor tyrosine-protein kinase erbB-2 (ERBB2, Homo sapiens, UniProt P04626)	86
Mitogen-activated protein kinase kinase kinase 13 (MAP3K13, Homo sapiens, UniProt O43283)	99
Tyrosine-protein kinase CSK (CSK, Homo sapiens, UniProt P41240)	85
Phosphatidylinositol 4,5-bisphosphate 3-kinase catalytic subunit alpha isoform (PIK3CA, Homo sapiens, UniProt P42336)	100
Serine/threonine-protein kinase PAK 6 (PAK6, Homo sapiens, UniProt Q9NQU5)	100
Serine/threonine-protein kinase tousled-like 1 (TLK1, Homo sapiens, UniProt Q9UKI8)	88
Tyrosine-protein kinase receptor UFO (AXL, Homo sapiens, UniProt P30530)	100
Mitogen-activated protein kinase kinase kinase 2 (MAP3K2, Homo sapiens, UniProt Q9Y2U5)	100
Phosphatidylinositol 4,5-bisphosphate 3-kinase catalytic subunit alpha isoform (PIK3CA, Homo sapiens, UniProt P42336, C420R)	74
Testis-specific serine/threonine-protein kinase 3 (TSSK3, Homo sapiens, UniProt Q96PN8)	80

Single results of other studies
SMILES	technique	measurement	value
CCOC(=O)[C@@H]1CSCC(=O)N[C@H](CC)C(=O)N(CC(C)C)CC(=O)N[C@@H](CC(C)C)C(=O)N(C)[C@H](C)C(=O)N(C)[C@@H](C)C(=O)N[C@H](CC(C)C)C(=O)N(C)[C@H](C)C(=O)N[C@@H](CC(C)C)C(=O)N1C	PRP-column chromatography	log k' (60)	0.824

Some of these lines once more (study 3):
Compound	remaining activity
CCC(=O)c1ccccc1O	96%
O=C(O)CC(O)C(=O)O (centres unmarked)	98.5%
COc1ccc2ccc(=O)oc2c1CC=C(C)C	103%
C[N+](C)(C)CCO	104%
CC1=CCC(=O)O1	97.5%
CCCCCCCCCCCCCCCC(=O)OCC	121%
N[C@@H](CC(=O)O)C(=O)O	83.9%
CC(=O)OCC1=C[C@H](O)[C@@H]2C(C(=O)O)=CO[C@@H](O[C@@H]3O[C@H](CO)[C@@H](O)[C@H](O)[C@H]3O)[C@H]12	115%
